Literature values as cited in several papers.
Protocols differ between the studies behind these lines. Several values in a cell are separate wells, animals, samples, runs or records. Numbers after ± are the reported error. Converted amounts (≈) assume the structure as drawn.

SMILES | test | test system | setting | how to read | measurement | value
c1ccc2c(c1)cc1ccc3cccc4c5ccccc5c2c1c34 |  | zebrafish embryos, whole embryo | 163 ng/well, 48 hpf, single exposure |  | amount in tissue | 0.216 ng/well and 0.284 ng/well and 0.219 ng/well
CC(=O)c1c(C)c2cnc(Nc3ccc(N4CCNCC4)cn3)nc2n(C2CCCC2)c1=O |  | male rat |  |  | maximum tolerated dose | 30 mg/kg
Cc1ccc(C(=O)c2cc(O)c(O)c([N+](=O)[O-])c2)cc1 |  | human |  |  | fraction unbound | 0.003
CC(=O)C[C@@H](c1ccccc1)c1c(O)c2ccccc2oc1=O |  | human, fasted | oral, 12.5 mg single dose, added: racemic warfarin 25 mg |  | Tmax | 1.72 h
CCOC(=O)C1=C[C@@H](OC(CC)CC)[C@H](NC(C)=O)[C@@H](N)C1 |  | rat | dose not given |  | volume of distribution | 3.1 L/kg
CC(F)(F)c1cc(F)ccc1-c1sc2cc(O)ccc2c1Oc1ccc(/C=C/C(=O)O)cc1 |  | rat | concentration not given, 4 weeks |  | STD10 | 300 mg/kg/day
C=C[C@@H]1C[C@]1(NC(=O)[C@@H]1C[C@@H]2CN1C(=O)[C@H](C(C)(C)C)NC(=O)O[C@@H]1C[C@H]1CCCCCc1nc3ccc(OC)cc3nc1O2)C(=O)NS(=O)(=O)C1CC1 |  | plasma |  |  | unbound fraction | ~1%
CNCCC=C1c2ccccc2CCc2ccccc21 |  | human |  |  | fraction unbound | 0.006
Cc1ccnc(-c2cc(C)ccn2)c1.[Ru+2].c1ccc(-c2ccnc3c2ccc2c(-c4ccccc4)ccnc23)cc1.c1ccc(-c2ccnc3c2ccc2c(-c4ccccc4)ccnc23)cc1 |  | acetonitrile |  |  | singlet oxygen quantum yield | 0.61
CC(C)CNC(=O)[C@@H](N)Cc1ccc(OP2(=O)CO[C@@H](Cn3cnc4c(N)ncnc43)CO2)cc1 (stereo partly shown) |  | PBS | pH 6.5, Sp isomer |  | half-life | 2.03 h
COC(=O)C1=C(C)NC(C)=C(C(=O)OCCN(C)Cc2ccccc2)C1c1cccc([N+](=O)[O-])c1 (stereo not shown) |  | mouse |  |  | fraction unbound | 0.004
CC[C@H](C)C[C@H](C)CCCCCCCCC(=O)N[C@H]1C[C@@H](O)[C@@H](NCCN)NC(=O)[C@@H]2[C@@H](O)CCN2C(=O)[C@H]([C@H](O)CCN)NC(=O)[C@H]([C@H](O)[C@@H](O)c2ccc(O)cc2)NC(=O)[C@@H]2C[C@@H](O)CN2C(=O)[C@H]([C@@H](C)O)NC1=O |  | human |  |  | fraction excreted in faeces | < 1%
COC(=O)[C@H]1[C@@H](c2ccc(C)cc2)C[C@@H]2CC[C@H]1N2C/C=C/C[18F] | PET | rat, striatum | dose not given, 24 min |  | tissue uptake | 1.44 %ID/g and 1.93 %ID/g and 1.95 %ID/g and 2.61 %ID/g and 2.17 %ID/g
O=C1CCC(N2C(=O)c3ccccc3C2=O)C(=O)N1 (stereo not shown) |  | human |  |  | blood-to-plasma ratio | 0.905
Clc1ccc(C(c2ccc(Cl)cc2)C(Cl)Cl)cc1 |  |  |  |  | logP | 5.39
O=C(O)C(F)(F)C(F)(F)C(F)(F)C(F)(F)C(F)(F)C(F)(F)C(F)(F)F | potentiometry |  |  |  | pKa | 3.8
CCCCCOc1ccc(-c2ccc(-c3ccc(C(=O)N[C@H]4C[C@@H](O)[C@@H](O)NC(=O)[C@@H]5[C@@H](O)[C@@H](C)CN5C(=O)[C@H]([C@@H](C)O)NC(=O)[C@H]([C@H](O)[C@@H](O)c5ccc(O)cc5)NC(=O)[C@@H]5C[C@@H](O)CN5C(=O)[C@H]([C@@H](C)O)NC4=O)cc3)cc2)cc1 |  | human renal impairment mild | 50 mg single dose |  | AUC(0-inf) | 52500 ± 15200 ng·h/mL
C[C@H](c1ccccc1)n1cncc1C(=O)OCCC(=O)O |  | rat, cerebrospinal fluid | MOC-etomidate infusion |  | concentration | 2500 ± 110 µM
O=C(O)C(F)(F)C(F)(F)C(F)(F)F |  | human |  |  | half-life | 96 h
CCOC(=O)N1c2ccc(C(F)(F)F)cc2[C@@H](N(Cc2cc(C(F)(F)F)cc(C(F)(F)F)c2)c2ncc(OCCCC(=O)O)cn2)C[C@H]1CC |  | human | concentration not given, fed state | baseline: fasted | exposure increase | ~1.6 fold

SMILES | test | test system | setting | how to read | measurement | value
CCCc1nc2c(C)cc(-c3nc4ccccc4n3C)cc2n1Cc1ccc(-c2ccccc2C(=O)O)cc1 |  | dog |  |  | fraction unbound | 0.011
Cc1cccc(C)c1N(Cn1cccn1)C(=O)CCl |  |  |  |  | log Kow | 2.13
O=C(O)C(F)(F)C(F)(F)C(F)(F)C(F)(F)C(F)(F)C(F)(F)C(F)(F)F |  | healthy adult female aged 35 years, serum | 0.187 ng/kg/day |  | serum concentration | 2 ng/mL
CN1Cc2c(N)cccc2C(c2ccccc2)C1 (stereo not shown) |  | mouse |  |  | fraction unbound | 0.078
CCc1c2c(nc3ccc(OC(=O)N4CCC(N5CCCCC5)CC4)cc13)-c1cc3c(c(=O)n1C2)COC(=O)[C@]3(O)CC |  | mouse LM2-4-luc tumour model |  |  | tolerability | not toxic
C[C@]1(CO)Cc2ncn(-c3ccc(C#N)c(Cl)c3)c2C(=O)O1 |  | patients with CKD | 10 mg |  | hyperkalaemia incidence | 15%
COc1ccc2c(c1)c(CC(=O)O)c(C)n2C(=O)c1ccc(Cl)cc1 |  | dog |  |  | fraction unbound | 0.035
NC1CCCCC1N.O=C([O-])C(=O)[O-].[Pt+2] (stereo not shown) | refers to: total platinum | mouse, plasma | intravenous, 8.34 mg Pt/kg |  | C0 | 50.1 µg Pt/mL
c1ccc2c(c1)-c1cccc3cccc-2c13 | substrate | human liver microsomes |  |  | Km | 0.629 µM
C[C@]12CC[C@H](n3ccnc3)CC1=CC[C@@H]1[C@@H]2CC[C@]2(C)C(n3cnc4ccccc43)=CC[C@@H]12 |  | male CD-1 mice, plasma | oral, dose not given |  | Cmax | 706 ng/mL
O=C1CCc2ccc(OCCCCN3CCN(c4cccc(Cl)c4Cl)CC3)cc2N1 |  | human |  |  | fraction unbound | 0.002
O=C(O)C(F)(F)C(F)(F)C(F)(F)C(F)(F)F |  | plasma |  |  | plasma fraction unbound | 0.044
c1cc2ccc3cccc4ccc(c1)c2c34 | substrate | human liver microsomes |  |  | Km | 0.144 µM
C[C@]12CCC(=O)C=C1CC[C@@H]1[C@@H]2[C@@H](O)C[C@@]2(C)[C@H]1CC[C@]2(O)C(=O)CO |  | human, plasma | concentration not given, median of reported values |  | Cmax | 0.384 µM
CCN(CCO)CCCC(C)Nc1ccnc2cc(Cl)ccc12 (stereo not shown) |  | rhesus macaque | intraperitoneal, 50 mg/kg |  | lung concentration | 30 µmol/kg
c1cc2c3c(cccc3c1)CC2 |  | zebrafish embryos, whole embryo | 178.9 ng/well, 48 hpf, single exposure |  | amount in tissue | 1.15 ng/well and 1.23 ng/well and 1.06 ng/well
ClC(Cl)=C(c1ccc(Cl)cc1)c1ccc(Cl)cc1 |  |  | 25 °C |  | water solubility | 0.12 µg/mL (≈ 0.377 µM)
CN1CCC[C@H]1c1cccnc1 |  |  |  |  | elimination rate constant | 0.706 h⁻¹
CC(C)(C)NCC(O)COc1ccc(NC(=O)NC2CCCCC2)cc1 (stereo not shown) |  | mouse |  |  | fraction unbound | 0.117
c1ccc2c(c1)ccc1c3ccccc3ccc21 |  | zebrafish embryos, whole embryo | 284.9 ng/well, 48 hpf, single exposure |  | amount in tissue | 0.128 ng/well and 0.17 ng/well and 0.159 ng/well
